Measurements gathered from unrelated publications.
Protocols differ between the studies behind these lines. ± gives the spread as reported.

Compound	organism	test	system	setting	scale	endpoint	value
[Cl-].[Cl-].[Pt+2].[Ru+2].c1ccc(-c2nc3cc4ccccc4cc3nc2-c2ccccn2)nc1.c1cnc2c(c1)ccc1cccnc12.c1cnc2c(c1)ccc1cccnc12	Danio rerio	–	embryos	15 µM, 96 h	–	hatching rate	70 ± 7.1%
COc1cccc(-c2n[nH]c(SCc3ccccn3)n2)c1OC	Escherichia coli	Ames test, plate incorporation	WP2 uvrA	0.50 mg/plate, with rat liver S9	–	revertant colonies per plate	41
Cc1cc(C#N)cc(C)c1Oc1nc(Nc2ccc(C#N)cc2)nc(N)c1Br	HIV-1	MTT	MT4, RT L100I/V179D/Y181C mutant	–	baseline: CC50 over EC50	selectivity index	> 27
OC(CCN1CC=C(c2ccc(F)cc2)CC1)c1ccc(F)c2ccccc12 (stereo not drawn)	Salmonella typhimurium	genotoxicity, SOS/umu test	TA1535/pSK1002	0.063 mg/mL, 4 h, with S9, full range	–	induction factor	1.1
CC(=O)N1CCC(C(=O)N2CCN3C(=O)c4cc(-c5ccccc5)ccc4NC(=O)C3C2)CC1 (stereo not drawn)	Escherichia coli	–	WP2 uvrA	50 µg/plate, with rat liver S9	–	revertants per plate	42.5
CC1(F)CN(C(=O)Cn2c(=O)c(C(=O)NCc3ccc(Cl)cc3)cc3nc(N4CCNC4=O)cnc32)C1	human cytomegalovirus	plaque reduction	AD169 US3-6-EGFP	–	baseline: CC50 over EC50	selectivity index	> 208
Cc1cc(C(=O)NC(C)(C)COc2cccc3c2C(N)=NS(=O)(=O)N3)cc(C)n1	Salmonella typhimurium	Ames test, initial	TA1535	150 µg/plate	baseline: solvent control	revertant ratio	1.1
O=[N+]([O-])c1ccc(N2CCN(CCC(O)c3ccc(F)cc3)CC2)c(C(F)(F)F)c1 (stereo not drawn)	Salmonella typhimurium	SOS/umu test	TA1535/pSK1002	0.031 mg/mL, 4 h, with S9, full range	–	survival	66.9%
[Cl-].[Cl-].[Pt+2].[Ru+2].c1ccc(-c2nccnc2-c2ccccn2)nc1.c1cnc2c(c1)ccc1cccnc12.c1cnc2c(c1)ccc1cccnc12	Danio rerio	–	embryos	90 µM, 72 h	–	survival rate	36.7 ± 2%

Some of these lines once more:
Compound	organism	test	system	setting	scale	endpoint	value
[Cl-].[Cl-].[Pt+2].[Ru+2].c1ccc(-c2nc3cc4ccccc4cc3nc2-c2ccccn2)nc1.c1cnc2c(c1)ccc1cccnc12.c1cnc2c(c1)ccc1cccnc12	Danio rerio	–	embryos	15 µM, 96 h	–	hatching rate	70 ± 7.1%
